Results gathered from unrelated publications.
Numbered parts are unrelated; each lists some results of a single study. Numbers after ± are the reported error.
UniProt O00141, sequence (whole entry, unmodified, looked up): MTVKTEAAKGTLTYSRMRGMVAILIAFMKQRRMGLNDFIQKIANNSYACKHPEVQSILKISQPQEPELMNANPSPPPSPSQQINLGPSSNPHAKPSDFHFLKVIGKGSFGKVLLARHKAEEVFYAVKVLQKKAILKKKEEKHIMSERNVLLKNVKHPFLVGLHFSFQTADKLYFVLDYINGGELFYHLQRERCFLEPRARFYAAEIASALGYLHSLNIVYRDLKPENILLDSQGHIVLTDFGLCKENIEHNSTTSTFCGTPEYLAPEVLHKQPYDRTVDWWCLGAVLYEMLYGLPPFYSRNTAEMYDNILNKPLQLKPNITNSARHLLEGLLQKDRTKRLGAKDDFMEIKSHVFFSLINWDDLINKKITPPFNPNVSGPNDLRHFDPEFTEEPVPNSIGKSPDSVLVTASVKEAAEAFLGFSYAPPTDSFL

Block 1
Cell line: MDA-MB-231
Time: 72 h
Quantity: CC50
Structure (SMILES) = Cc1ccc(CNC(=O)c2cn(Cc3ccc(Cl)cc3)c3ccc(Oc4ccccc4)cc3c2=O)cc1; value = 16.4 ± 0.42 µM
Structure (SMILES) = O=C(NCc1ccc(C(F)(F)F)cc1)c1cn(Cc2ccc(Cl)cc2)c2ccc(Oc3ccccc3)cc2c1=O; value = 18 ± 2.45 µM
Structure (SMILES) = O=C(NCc1ccc(F)cc1)c1cn(Cc2ccc(C(F)(F)F)cc2)c2ccc(Oc3ccccc3)cc2c1=O; value = 27.3 ± 8.25 µM
Structure (SMILES) = O=C(NCc1ccc(F)cc1)c1cn(Cc2ccc(F)cc2)c2ccc(Oc3ccccc3)cc2c1=O; value = 32 ± 1.21 µM

Mixed results
Structure (SMILES) = COc1cc(-c2nc3ccccc3c(=O)n2Nc2ccc([N+](=O)[O-])cc2[N+](=O)[O-])ccc1OCc1cn(CC(=O)Nc2ccc(Br)cc2)nn1; target or system = mushroom tyrosinase; test = enzyme activity; setting = 40 µM, added: L-DOPA; quantity = inhibition; value = 41.6 ± 2.39%
Structure (SMILES) = CCc1nn(C)c2nc(-c3ccc4c(c3)CNC4=O)nc(NCc3ccc(F)cc3)c12; target or system = Cryptosporidium parvum; test = parasite growth, high-content microscopy; system = HCT-8, Iowa; setting = concentration not given; quantity = anti-parasitic activity; value = inactive
Structure (SMILES) = CCc1ccc(NC(=O)Cn2cc(COc3ccc(-c4nc5ccccc5c(=O)n4Nc4ccc([N+](=O)[O-])cc4[N+](=O)[O-])cc3OC)nn2)cc1; target or system = mushroom tyrosinase; test = enzyme activity; setting = 40 µM, added: L-DOPA; quantity = inhibition; value = 58.7 ± 7.51%
Structure (SMILES) = O=C(Nc1cc(-c2ccc(Cl)cc2)[nH]n1)C1CCCCC1; target or system = SGK1 (Homo sapiens, UniProt O00141, S422D); test = enzyme activity, Dundee kinase panel; setting = 10 µM; quantity = remaining activity; value = 86%

Repeated from above (mixed results):
Structure (SMILES) = COc1cc(-c2nc3ccccc3c(=O)n2Nc2ccc([N+](=O)[O-])cc2[N+](=O)[O-])ccc1OCc1cn(CC(=O)Nc2ccc(Br)cc2)nn1; target or system = mushroom tyrosinase; test = enzyme activity; setting = 40 µM, added: L-DOPA; quantity = inhibition; value = 41.6 ± 2.39%
